Measured values pooled from the literature.
A part holds a random share of what one study measured.
Chain of UniProt Q12851 (whole entry, looked up): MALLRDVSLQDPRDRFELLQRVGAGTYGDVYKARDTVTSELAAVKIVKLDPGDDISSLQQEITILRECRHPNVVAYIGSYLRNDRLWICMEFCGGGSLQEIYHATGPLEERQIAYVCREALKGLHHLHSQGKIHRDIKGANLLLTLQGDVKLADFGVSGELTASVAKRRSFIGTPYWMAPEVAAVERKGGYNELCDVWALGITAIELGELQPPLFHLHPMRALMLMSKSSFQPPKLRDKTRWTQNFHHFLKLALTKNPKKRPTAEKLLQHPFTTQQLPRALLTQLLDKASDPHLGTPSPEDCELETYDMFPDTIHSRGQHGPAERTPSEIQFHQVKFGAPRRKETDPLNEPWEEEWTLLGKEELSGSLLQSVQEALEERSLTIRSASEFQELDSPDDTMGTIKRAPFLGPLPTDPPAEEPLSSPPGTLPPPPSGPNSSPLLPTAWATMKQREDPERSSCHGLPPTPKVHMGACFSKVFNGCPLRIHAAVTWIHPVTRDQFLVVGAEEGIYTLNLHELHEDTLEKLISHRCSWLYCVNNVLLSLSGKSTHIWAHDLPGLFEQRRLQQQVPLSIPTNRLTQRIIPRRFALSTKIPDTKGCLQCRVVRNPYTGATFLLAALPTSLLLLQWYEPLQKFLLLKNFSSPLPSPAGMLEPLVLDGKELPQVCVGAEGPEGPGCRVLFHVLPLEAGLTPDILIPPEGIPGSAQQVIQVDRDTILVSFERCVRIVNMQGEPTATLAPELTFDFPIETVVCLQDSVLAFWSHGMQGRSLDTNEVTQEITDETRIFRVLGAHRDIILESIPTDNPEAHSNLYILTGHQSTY

Series 1
Target: Histone acetyltransferase KAT6A, winged helix 1, GST fusion (KAT6A, Homo sapiens, UniProt Q92794, residues 1-85)
Method: protein binding microarray
Form: double-stranded DNA, one strand shown
Sample: in vitro
Concentration: not given
Notes: 8-mer, flanks averaged, mean of 2 arrays, mostly near background
Baseline: not given
Direction: higher = stronger binding
Quantity: E-score
Residues (chain): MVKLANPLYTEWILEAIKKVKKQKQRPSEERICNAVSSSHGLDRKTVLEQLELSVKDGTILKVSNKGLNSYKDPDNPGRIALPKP
AACCCGAA: 0.0569
GGGTCAAC: -0.0905
CTGTAGGA: -0.0158
CGCGCTGC: 0.416
AGCGCGAC: 0.286
CCAACGGA: 0.0172
TACAGAGA: -0.0487
ACACTGTC: -0.00996

Series 2
Target: Interferon regulatory factor 7, full length, phosphomimetic (IRF7, Homo sapiens, UniProt Q92985, residues 1-503, S471D/S472D/S475D/S476D/S477D/S483D/S484D/S487D)
Method: protein-binding microarray
Form: double-stranded DNA, one strand shown
Sample: in vitro
Concentration: 2200 nM top
Notes: 60-bp whole probe
With: salmon DNA 0.4 mg/ml
Baseline: random background probes
Direction: higher = stronger binding
Quantity: fitted relative affinity
All sequences stand within: GCCTAGCAC … GTCTTGATTCGCTTGACGCTGCTG
Target sequence (chain): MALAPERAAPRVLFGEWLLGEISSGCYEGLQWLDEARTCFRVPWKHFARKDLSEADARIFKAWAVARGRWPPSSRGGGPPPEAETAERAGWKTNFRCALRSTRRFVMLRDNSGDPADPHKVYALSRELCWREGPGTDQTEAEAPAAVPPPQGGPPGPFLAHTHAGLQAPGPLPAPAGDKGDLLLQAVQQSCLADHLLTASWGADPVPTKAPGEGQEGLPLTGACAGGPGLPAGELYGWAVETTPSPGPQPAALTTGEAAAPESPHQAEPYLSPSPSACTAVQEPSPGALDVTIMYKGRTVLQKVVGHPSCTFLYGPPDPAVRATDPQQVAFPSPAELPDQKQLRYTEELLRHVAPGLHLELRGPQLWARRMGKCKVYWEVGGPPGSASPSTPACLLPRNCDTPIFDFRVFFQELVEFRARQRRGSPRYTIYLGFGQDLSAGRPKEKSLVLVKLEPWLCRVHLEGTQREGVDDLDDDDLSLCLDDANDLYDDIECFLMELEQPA
GACGGACTGCTTTTCATGACGTGCTAG: 0.359 z-score
TTAGATATCAGTATCGACTAGTGCTAG: 0.0172 z-score
GACGATTTCGGGACTGGAGACGTGCTA: 1.3 z-score
TTAGGTATTCTTATCCTTTAGTGCTAG: 0.536 z-score
GACGATCTCACACTGGAGACGTGCTAG: 0.361 z-score
TCATTTTTGTATTTTTGACTGTGCTAG: 2.4 z-score
TTAGGTTTCCTTAGCCTTTAGTGCTAG: 0.64 z-score
GACGGTATCGGGAATCGGGACGTGCTA: -0.351 z-score

Series 3
Target: RNA binding protein fox-1 homolog 2, RRM domain, GST-SBP tag (RBFOX2, Homo sapiens, UniProt O43251-10, residues 100-194)
Method: RNA Bind-n-Seq
Form: RNA
Sample: in vitro
Concentration: 365 nM
Notes: natural RNA segment, single round, ends assumed
Baseline: no-protein control
Direction: higher = stronger binding
Quantity: RBNS enrichment (R)
All sequences stand within: GGGAGUUCUACAGUCCGACGAUC … UGGAAUUCUCGGGUGCCAA
Construct (chain): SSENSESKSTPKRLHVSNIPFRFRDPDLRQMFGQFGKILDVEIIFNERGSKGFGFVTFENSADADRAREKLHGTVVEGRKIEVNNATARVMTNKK
AAAACCAGCGAGUGUCGUGGUGCAGGCAGGCCCUGUGGCCUGCUGGGCUGAGGGAAGUCAGAGCCCCAGGGCGCCACGAAGCAGCCACUGGGAUACCCCACCCCGCCCCG: 0.317
UCUUGGGUGUUCCUUAUCUGGGGAAGCAAACAUUUCACUAGUCUCUUUUUUUCAUCCUUUAAAUUGUAAAUUAAGGAUUACUCAAGCUCACCAUUAUUCAAGAUUGGGAC: 0.4
AGGGGAGUGGGACUGAGAGACAGUUCCAGAGCCUCCAGGGAAGGCUUCUACUGCUAACUGCUGUAUUCUGUAUAUACUGUGCCACCCUGUGUGGAGUCUGUGAGUGUGCU: 0.973
AAAGGUUAACUUGGCCCGAAAAUAUUGCAGCAGCUUCAUGCAAGAAUUGCCACAGGACACUAUGGCCUUGCUGGGCUAGCAUUUGCUGCUGUAAUCUAGUUGCUCUGGUA: 0.457
GCCCUCCGCUCUAGUCCUAGCAGGGCAGCCAUGAGCCGAGGGGAGGUGGAGAAGGCUUGUGCAGGUACAAACGACCUCAAGGACUGUGGCCUGCAACUGGAGACUGCUAA: 0.479
CAGCUGAAGCAAGAGGCUGAUUGACUGGCUGCUCACUCAGGCAGGUGGCCUGCCCUGGCAUCCUGUAGAUUCUGAGCAGGUUGAGAUGUGGAUAUCUCCAUGGGAAGCUU: 0.445
CCAGAGCCAUCCCUGAAGCCAGGUGACUGUCCCAAGGUCUUCCCUCCCGGGAGCCCAACCUUUCGAGUGCAGCCAAACCUUACUGCUUUUACAACAUUGCACAGCUGUGU: 0.294
UCAUAUUUAUAAGUAUGCAUUUUAUUUAAGAGGAAGUAUAGGCUUGACUCUGGUUCACAAUUUCGUACGUAGCUGGUUUGACGUAGAACUUUGUACUUCCCUUGCCGAAG: 3.84

Single results of other studies
CN([C@@H](Cc1ccc(OS(=O)(=O)c2cccc3cnccc23)cc1)C(=O)N1CCN(c2ccccc2)CC1)S(=O)(=O)c1cccc2cnccc12  remaining activity (Mitogen-activated protein kinase kinase kinase kinase 2 (MAP4K2, Homo sapiens, UniProt Q12851); enzyme activity, inhibitor; 0.5 µM; baseline: control): 89.5%

For quick reference, copied from above (series 2):
GACGATCTCACACTGGAGACGTGCTAG: 0.361 z-score
TTAGGTATTCTTATCCTTTAGTGCTAG: 0.536 z-score
